Assay results pooled from the literature.
Protocols differ between the studies behind these lines. Numbers after ± are the reported error.
HLA class I histocompatibility antigen, A alpha chain allele A*01:01: HLA class I histocompatibility antigen, A alpha chain, allele A*01:01 (Homo sapiens, UniProt P04439)
HLA class I histocompatibility antigen, A alpha chain allele A*02:01: HLA class I histocompatibility antigen, A alpha chain, allele A*02:01 (Homo sapiens, UniProt P04439)
HLA class I histocompatibility antigen, A alpha chain allele A*24:02: HLA class I histocompatibility antigen, A alpha chain, allele A*24:02 (Homo sapiens, UniProt P04439)
HLA class I histocompatibility antigen, A alpha chain allele A*26:01: HLA class I histocompatibility antigen, A alpha chain, allele A*26:01 (Homo sapiens, UniProt P04439)
Chain of UniProt P03023 (whole entry, unmodified, looked up): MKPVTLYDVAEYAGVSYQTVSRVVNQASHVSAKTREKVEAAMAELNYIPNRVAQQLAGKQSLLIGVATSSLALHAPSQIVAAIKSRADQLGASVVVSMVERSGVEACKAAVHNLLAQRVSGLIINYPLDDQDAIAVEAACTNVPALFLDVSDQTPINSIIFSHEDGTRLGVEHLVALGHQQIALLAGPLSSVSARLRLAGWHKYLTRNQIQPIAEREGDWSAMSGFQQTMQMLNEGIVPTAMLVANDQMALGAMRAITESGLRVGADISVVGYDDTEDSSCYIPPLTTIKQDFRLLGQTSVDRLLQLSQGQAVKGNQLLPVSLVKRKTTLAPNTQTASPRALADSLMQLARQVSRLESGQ
Chain of UniProt P56817 (whole entry, looked up): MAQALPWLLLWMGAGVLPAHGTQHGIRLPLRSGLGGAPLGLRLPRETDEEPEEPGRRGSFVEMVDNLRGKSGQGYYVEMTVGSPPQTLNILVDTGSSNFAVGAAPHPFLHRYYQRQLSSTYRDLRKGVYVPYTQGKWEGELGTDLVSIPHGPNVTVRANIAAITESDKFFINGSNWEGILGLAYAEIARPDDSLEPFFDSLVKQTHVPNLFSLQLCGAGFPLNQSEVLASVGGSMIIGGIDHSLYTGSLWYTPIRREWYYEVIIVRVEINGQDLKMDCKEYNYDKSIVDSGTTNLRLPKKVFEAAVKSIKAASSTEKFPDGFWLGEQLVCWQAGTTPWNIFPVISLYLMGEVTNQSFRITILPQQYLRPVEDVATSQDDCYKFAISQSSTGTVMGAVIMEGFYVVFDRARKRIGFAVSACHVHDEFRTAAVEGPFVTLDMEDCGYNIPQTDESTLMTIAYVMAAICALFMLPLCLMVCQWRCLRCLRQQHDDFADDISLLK
Chain of UniProt P28222 (whole entry, looked up): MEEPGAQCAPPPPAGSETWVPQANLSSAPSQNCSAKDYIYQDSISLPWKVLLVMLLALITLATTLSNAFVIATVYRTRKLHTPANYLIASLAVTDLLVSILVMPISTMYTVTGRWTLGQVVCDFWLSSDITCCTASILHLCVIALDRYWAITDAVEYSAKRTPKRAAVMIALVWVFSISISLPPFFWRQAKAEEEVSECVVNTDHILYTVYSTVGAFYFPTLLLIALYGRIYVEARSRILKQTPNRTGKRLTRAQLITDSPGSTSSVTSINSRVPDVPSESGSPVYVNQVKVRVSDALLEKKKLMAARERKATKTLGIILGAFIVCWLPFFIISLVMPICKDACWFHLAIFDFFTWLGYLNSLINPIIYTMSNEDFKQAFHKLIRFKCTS
Chain of UniProt Q5XXA6 (whole entry, unmodified, looked up): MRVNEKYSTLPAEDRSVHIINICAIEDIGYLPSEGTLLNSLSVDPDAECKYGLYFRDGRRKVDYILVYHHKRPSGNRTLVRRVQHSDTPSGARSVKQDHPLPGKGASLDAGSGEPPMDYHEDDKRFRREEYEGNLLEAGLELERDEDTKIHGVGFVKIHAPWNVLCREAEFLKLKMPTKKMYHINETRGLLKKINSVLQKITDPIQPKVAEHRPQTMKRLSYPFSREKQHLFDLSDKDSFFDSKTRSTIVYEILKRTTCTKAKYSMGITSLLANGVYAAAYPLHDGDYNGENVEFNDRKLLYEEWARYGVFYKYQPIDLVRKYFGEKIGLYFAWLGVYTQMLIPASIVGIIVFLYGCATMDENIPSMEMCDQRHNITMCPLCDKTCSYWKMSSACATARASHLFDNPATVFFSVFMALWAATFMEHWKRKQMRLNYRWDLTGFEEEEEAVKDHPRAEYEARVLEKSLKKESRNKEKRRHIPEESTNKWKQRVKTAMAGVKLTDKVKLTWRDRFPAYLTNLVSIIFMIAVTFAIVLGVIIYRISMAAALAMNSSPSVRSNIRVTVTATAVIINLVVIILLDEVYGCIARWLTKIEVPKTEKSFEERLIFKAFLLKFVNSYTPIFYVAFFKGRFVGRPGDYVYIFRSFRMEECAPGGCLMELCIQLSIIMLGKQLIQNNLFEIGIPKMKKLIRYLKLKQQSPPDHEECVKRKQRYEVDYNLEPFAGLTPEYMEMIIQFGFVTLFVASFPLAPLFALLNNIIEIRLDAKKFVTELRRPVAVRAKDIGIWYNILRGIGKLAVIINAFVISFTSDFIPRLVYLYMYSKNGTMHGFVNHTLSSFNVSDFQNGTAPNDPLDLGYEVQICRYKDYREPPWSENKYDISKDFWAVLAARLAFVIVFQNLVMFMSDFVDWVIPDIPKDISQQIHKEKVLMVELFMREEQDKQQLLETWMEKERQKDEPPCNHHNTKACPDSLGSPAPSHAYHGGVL
Chain of UniProt Q9UBR2 (whole entry, looked up): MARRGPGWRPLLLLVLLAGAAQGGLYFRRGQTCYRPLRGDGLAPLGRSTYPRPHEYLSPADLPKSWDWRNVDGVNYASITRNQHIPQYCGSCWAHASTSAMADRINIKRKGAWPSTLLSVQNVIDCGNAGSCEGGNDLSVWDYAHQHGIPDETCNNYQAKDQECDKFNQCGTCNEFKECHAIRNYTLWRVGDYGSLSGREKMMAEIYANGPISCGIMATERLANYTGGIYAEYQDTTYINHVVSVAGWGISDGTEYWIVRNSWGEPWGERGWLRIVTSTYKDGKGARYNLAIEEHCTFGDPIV
Chain of UniProt P49720 (whole entry, looked up): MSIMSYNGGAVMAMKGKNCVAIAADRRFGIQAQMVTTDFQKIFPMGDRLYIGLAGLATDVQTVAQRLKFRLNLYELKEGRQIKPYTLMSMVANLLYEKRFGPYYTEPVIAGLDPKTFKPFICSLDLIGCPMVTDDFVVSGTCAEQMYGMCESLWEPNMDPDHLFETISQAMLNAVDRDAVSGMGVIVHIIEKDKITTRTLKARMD
Chain of UniProt P20618 (whole entry, looked up): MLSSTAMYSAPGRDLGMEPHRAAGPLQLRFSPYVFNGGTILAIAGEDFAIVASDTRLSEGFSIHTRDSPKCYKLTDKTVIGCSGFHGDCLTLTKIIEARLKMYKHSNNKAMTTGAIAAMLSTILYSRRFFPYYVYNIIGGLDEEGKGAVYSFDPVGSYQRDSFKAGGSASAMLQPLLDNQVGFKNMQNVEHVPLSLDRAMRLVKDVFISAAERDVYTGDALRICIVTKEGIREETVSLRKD
Chain of UniProt O15244 (whole entry, looked up): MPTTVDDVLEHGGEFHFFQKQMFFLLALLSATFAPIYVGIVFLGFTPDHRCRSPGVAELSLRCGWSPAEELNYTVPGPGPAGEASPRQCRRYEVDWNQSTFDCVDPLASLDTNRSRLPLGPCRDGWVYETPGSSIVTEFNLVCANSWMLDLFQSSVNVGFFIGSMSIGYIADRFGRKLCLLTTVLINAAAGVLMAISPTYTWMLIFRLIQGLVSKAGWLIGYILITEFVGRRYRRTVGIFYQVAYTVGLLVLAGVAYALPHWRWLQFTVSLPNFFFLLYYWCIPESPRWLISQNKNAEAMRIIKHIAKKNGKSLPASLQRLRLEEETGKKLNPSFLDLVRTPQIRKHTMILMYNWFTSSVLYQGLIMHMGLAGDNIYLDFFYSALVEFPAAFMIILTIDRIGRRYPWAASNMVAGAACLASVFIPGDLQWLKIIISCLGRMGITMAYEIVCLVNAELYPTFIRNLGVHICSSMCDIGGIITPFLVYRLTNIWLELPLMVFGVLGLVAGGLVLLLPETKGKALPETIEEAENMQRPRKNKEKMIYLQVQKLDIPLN
Chain of UniProt Q12791 (whole entry, looked up): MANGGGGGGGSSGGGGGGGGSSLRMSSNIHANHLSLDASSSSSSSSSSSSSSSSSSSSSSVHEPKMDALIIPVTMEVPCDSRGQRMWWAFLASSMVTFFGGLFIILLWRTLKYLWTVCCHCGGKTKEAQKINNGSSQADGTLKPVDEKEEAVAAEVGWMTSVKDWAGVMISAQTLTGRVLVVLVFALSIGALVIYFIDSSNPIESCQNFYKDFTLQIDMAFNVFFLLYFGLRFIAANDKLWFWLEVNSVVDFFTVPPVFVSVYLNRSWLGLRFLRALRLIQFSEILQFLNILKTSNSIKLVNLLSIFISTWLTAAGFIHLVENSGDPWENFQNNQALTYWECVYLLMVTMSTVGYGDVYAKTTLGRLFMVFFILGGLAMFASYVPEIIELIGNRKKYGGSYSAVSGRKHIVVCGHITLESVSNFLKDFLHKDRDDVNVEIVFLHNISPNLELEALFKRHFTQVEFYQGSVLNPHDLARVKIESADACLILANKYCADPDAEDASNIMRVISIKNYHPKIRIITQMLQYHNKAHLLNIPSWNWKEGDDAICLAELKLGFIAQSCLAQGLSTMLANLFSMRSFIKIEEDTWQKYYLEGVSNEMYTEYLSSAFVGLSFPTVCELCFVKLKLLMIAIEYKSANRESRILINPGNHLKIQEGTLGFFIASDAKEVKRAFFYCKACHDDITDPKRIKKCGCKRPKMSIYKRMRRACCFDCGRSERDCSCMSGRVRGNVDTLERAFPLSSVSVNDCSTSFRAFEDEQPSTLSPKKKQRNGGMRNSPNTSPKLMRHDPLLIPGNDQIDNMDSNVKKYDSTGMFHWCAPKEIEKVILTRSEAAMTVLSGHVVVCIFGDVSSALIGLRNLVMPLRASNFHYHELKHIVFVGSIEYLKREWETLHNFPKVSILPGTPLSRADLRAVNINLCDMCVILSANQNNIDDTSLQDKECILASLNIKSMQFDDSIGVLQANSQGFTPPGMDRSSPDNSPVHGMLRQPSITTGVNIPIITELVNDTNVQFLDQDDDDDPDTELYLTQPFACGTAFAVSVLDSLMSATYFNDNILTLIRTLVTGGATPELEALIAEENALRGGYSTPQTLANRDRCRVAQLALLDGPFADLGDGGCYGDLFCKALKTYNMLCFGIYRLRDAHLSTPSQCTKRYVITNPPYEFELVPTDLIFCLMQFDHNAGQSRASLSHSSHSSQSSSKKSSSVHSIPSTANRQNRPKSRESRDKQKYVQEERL

CC(C)C[C@H](NC(=O)[C@H](CCC(=O)O)NC(=O)[C@H](CC(C)C)NC(=O)[C@@H]1CCCN1C(=O)[C@H](CCCCN)NC(=O)[C@H](CO)NC(=O)[C@H](Cc1ccc(O)cc1)NC(=O)[C@@H](NC(=O)[C@@H](N)Cc1ccc(O)cc1)[C@@H](C)O)C(=O)O — IC50 (HLA class I histocompatibility antigen, A alpha chain allele A*01:01; binding): 0.937 µM
C[C@]12CC[C@H](O)C[C@@H]1CC[C@@H]1[C@@H]2CC[C@]2(C)[C@@H]([N+](=O)[O-])CC[C@@H]12 — IC50 (GABAA receptor, rat; radioligand binding; rat cerebral cortex homogenate; with: 6.25 µM GABA): > 10 µM
O=C(Nc1ccccc1-c1ccc(Cl)cc1)c1cccnc1Cl — IC50 (succinate-cytochrome c oxidoreductase (Botrytis cinerea, UniProt A0A384J5E4+D2IH01+D2IH03); succinate-cytochrome c reductase activity; Botrytis cinerea, mitochondrial fraction; 25 °C): 0.00612 µM
CC[C@H](C)[C@H](NC(=O)[C@H](CC(C)C)NC(=O)CNC(=O)[C@H](CCCNC(=N)N)NC(=O)[C@H](CC(C)C)NC(=O)[C@@H](NC(=O)[C@H](CCSC)NC(=O)[C@@H]1CCCN1C(=O)CN)C(C)C)C(=O)N[C@H](C(=O)O)[C@@H](C)O — IC50 (HLA class I histocompatibility antigen, A alpha chain allele A*02:01; peptide-MHC binding, radioligand competition binding): 2 µM
CSCC[C@H](NC(=O)[C@H](CO)NC(=O)[C@H](CC(C)C)NC(=O)[C@@H](NC(=O)[C@H](Cc1c[nH]cn1)NC(=O)[C@H](CCCCN)NC(=O)[C@H](Cc1ccccc1)NC(=O)[C@H](CCC(N)=O)NC(=O)[C@@H](N)CCCCN)[C@@H](C)O)C(=O)O — IC50 (HLA class I histocompatibility antigen, A alpha chain allele A*02:01; binding): 18.2 µM
OC[C@H]1O[C@@H](OCCc2ccccc2)[C@H](O)[C@@H](O)[C@H]1O — IC50 (lacI (Escherichia coli, UniProt P03023, D149C/N125C); inhibitor): 620 µM
CC[C@H](C)[C@H](NC(=O)[C@H](Cc1c[nH]cn1)NC(=O)CNC(=O)[C@H](Cc1ccc(O)cc1)NC(=O)[C@H](CCC(N)=O)NC(=O)[C@@H](N)Cc1c[nH]cn1)C(=O)N[C@@H](CC(C)C)C(=O)N[C@@H](CCC(N)=O)C(=O)N[C@@H](Cc1ccc(O)cc1)C(=O)O — IC50 (HLA class I histocompatibility antigen, A alpha chain allele A*24:02; binding): 67.5 µM
CSCC[C@H](NC(=O)[C@H](Cc1ccccc1)NC(=O)CNC(=O)CNC(=O)[C@H](Cc1ccc(O)cc1)NC(=O)[C@@H](N)CCCNC(=N)N)C(=O)O — IC50 (rat aminopeptidase III; enzyme activity, inhibitor): 5.2 µM
CC[C@H](C)[C@H](NC(=O)[C@@H](N)CCCNC(=N)N)C(=O)N[C@@H](Cc1ccc(O)cc1)C(=O)NCC(=O)N1CCC[C@H]1C(=O)N1CCC[C@H]1C(=O)N[C@@H](Cc1c[nH]cn1)C(=O)N[C@@H](CCC(N)=O)C(=O)N[C@@H](Cc1ccccc1)C(=O)O — IC50 (HLA class I histocompatibility antigen, A alpha chain allele A*24:02; binding): 1.14 µM
Nc1c2c(nc3c1C(c1ccc(Cl)c(Cl)c1)c1ccc(OCC(=O)c4ccc(Cl)cc4)cc1O3)CCCC2 (centres unmarked) — IC50 (Beta-secretase 1 (BACE1, Homo sapiens, UniProt P56817); enzyme activity, inhibitor): 0.446 µM
CO[C@@H]1[C@@H](OC(N)=O)[C@@H](O)[C@H](Oc2ccc3c(O)c(NC(=O)c4ccc(O)c(CC=C(C)C)c4)c(=O)oc3c2C)OC1(C)C — IC50 (DNA gyrase subunit (Acinetobacter baumannii, UniProt A0ABX6CA01); DNA supercoiling): 0.016 µM
NCCOCC(=O)N1CCCC(C(=O)NCc2nc(-c3ccc(-c4ccc(F)cc4)cc3)cs2)C1 (centres unmarked) — IC50 (PSMB1/PSMB5/PSMB3 (Homo sapiens, UniProt P20618+P28074+P49720)): > 30 µM
CC(C)[C@H](NC(=O)[C@H](Cc1c[nH]cn1)NC(=O)[C@@H]1CCCN1C(=O)[C@H](Cc1ccccc1)NC(=O)[C@H](C)NC(=O)[C@@H](N)Cc1c[nH]cn1)C(=O)N[C@H](C(=O)N[C@H](C(=O)N[C@@H](Cc1ccccc1)C(=O)O)[C@@H](C)O)C(C)C — IC50 (HLA class I histocompatibility antigen, A alpha chain allele A*02:01; binding): 31.9 µM
CCCCCCCCCCCCCCCC(=O)C(F)(F)F — IC50 (Faah (Rattus norvegicus, UniProt P97612); inhibitor; with: FP-biotin 1 µM): 3.97 µM
C[C@H]1CN(c2n[nH]c3nc(N[C@H]4CC[C@H](NS(=O)(=O)CCC(F)(F)F)CC4)ncc23)CCO1 — IC50 (Cysteine--tRNA ligase, cytoplasmic (Homo sapiens, UniProt P49589); biochemical): ≥ 20 µM
CN(C)C(=O)C(CCN1CCC(O)(c2ccc(Cl)cc2)CC1)(c1ccccc1)c1ccccc1 — IC50 (Calcium-activated potassium channel subunit alpha-1, with LRRC26 γ1 subunit (KCNMA1, Homo sapiens, UniProt Q12791); BK channel conductance, inhibitor, inside-out patch clamp; BKα/γ1, Vm 120 mV, nominally Ca2+-free): 2.27 ± 0.39 µM
CC(C)[C@H](NC(=O)[C@@H](NC(=O)[C@@H](NC(=O)[C@@H](NC(=O)[C@@H](NC(=O)[C@H](Cc1ccccc1)NC(=O)[C@H](CCC(=O)O)NC(=O)[C@@H](N)CC(=O)O)C(C)C)C(C)C)C(C)C)[C@@H](C)O)C(=O)O — IC50 (HLA class I histocompatibility antigen, A alpha chain allele A*26:01; peptide-MHC binding, radioligand competition binding): 9.55 µM
CCOC(=O)c1c(NCc2ccc(SC)cc2)c2cccc(C)c2[nH]c1=O — IC50 (Anoctamin-1 (ANO1, Homo sapiens, UniProt Q5XXA6, del476-501); inhibitor): 5.24 ± 0.5 µM
CC(C)C[C@H](NC(=O)[C@@H](NC(=O)[C@@H](NC(=O)[C@H](CC(=O)O)NC(=O)[C@H](Cc1ccccc1)NC(=O)[C@H](CCC(N)=O)NC(=O)[C@@H](N)CCCCN)C(C)C)[C@@H](C)O)C(=O)N[C@@H](Cc1ccc(O)cc1)C(=O)N[C@@H](Cc1ccccc1)C(=O)O — IC50 (HLA class I histocompatibility antigen, A alpha chain allele A*02:01; binding): 0.225 µM
COc1ccc2c(c1NC(=O)CCCCCN1C(=O)C=CC1=O)CCCC=C2c1cc(OC)c(OC)c(OC)c1 — IC50 (Tubulin alpha-1B chain/TUBB2B (Bos taurus, UniProt P81947+Q6B856); tubulin polymerization, inhibitor, turbidimetric; 20 min, 30 °C, with: tubulin 10 µM): 3.2 ± 2 µM
CC(C)[C@H](NC(=O)[C@H](C)NC(=O)[C@@H](N)Cc1ccccc1)C(=O)N[C@@H](CC(=O)O)C(=O)N[C@@H](C)C(=O)N[C@@H](C)C(=O)N[C@@H](CCCCN)C(=O)N[C@@H](C)C(=O)N[C@@H](Cc1ccc(O)cc1)C(=O)O — IC50 (HLA class I histocompatibility antigen, A alpha chain allele A*26:01; peptide-MHC binding, radioligand competition binding): 0.0067 µM
O=CCc1ccccc1 — IC50 (uncharacterized protein (Drosophila suzukii, UniProt A0AB39ZCT4); binding, bis-ANS competition fluorescence; pH 7.4, with: bis-ANS): > 50 µM
COc1cc(Nc2ncc(F)c(Nc3ccc4c(n3)NC(=O)C(C)(C)O4)n2)cc(OC)c1OC — IC50 (Cathepsin Z (Homo sapiens, UniProt Q9UBR2)): > 10 µM
CNC(C)Cc1ccc2nonc2c1 (centres unmarked) — IC50 (SLC22A2 (Homo sapiens, UniProt O15244)): 15 ± 7.4 µM
CC[C@H](C)[C@H](NC(=O)[C@H](Cc1c[nH]cn1)NC(=O)[C@H](CCCCN)NC(=O)[C@H](Cc1ccc(O)cc1)NC(=O)[C@@H](NC(=O)[C@@H](N)Cc1c[nH]cn1)C(C)C)C(=O)N[C@@H](CC(C)C)C(=O)N[C@H](C(=O)N[C@@H](Cc1ccccc1)C(=O)O)[C@@H](C)O — IC50 (HLA class I histocompatibility antigen, A alpha chain allele A*24:02; binding): 4.96 µM
O=C(NO)c1ccccc1 — IC50 (Histone deacetylase 6, catalytic domain 2 (hdac6, Danio rerio, UniProt F8W4B7); enzyme activity, inhibitor, fluorogenic; 30 min): 3.4 ± 0.7 µM
CC(C)C[C@H](NC(=O)[C@@H](N)Cc1c[nH]cn1)C(=O)N[C@@H](Cc1ccccc1)C(=O)N1CCC[C@H]1C(=O)N[C@@H](CCCNC(=N)N)C(=O)N[C@H](C(=O)N[C@@H](Cc1c[nH]cn1)C(=O)N[C@@H](Cc1ccc(O)cc1)C(=O)N[C@@H](Cc1ccccc1)C(=O)O)[C@@H](C)O — IC50 (HLA class I histocompatibility antigen, A alpha chain allele A*01:01; binding): 77 µM
c1ccc2c(c1)OCC(C1=NCCN1)O2 (centres unmarked) — IC50 (imidazoline I2 receptor, rat brain; radioligand binding): 0.007 µM
COc1ncccc1-c1cnn2ccc(N3CCN(C(=O)OC(C)C)CC3)nc12 — IC50 (HTR1B (Homo sapiens, UniProt P28222); liability screen): > 30 µM

A few entries again:
CC(C)[C@H](NC(=O)[C@H](C)NC(=O)[C@@H](N)Cc1ccccc1)C(=O)N[C@@H](CC(=O)O)C(=O)N[C@@H](C)C(=O)N[C@@H](C)C(=O)N[C@@H](CCCCN)C(=O)N[C@@H](C)C(=O)N[C@@H](Cc1ccc(O)cc1)C(=O)O — IC50 (HLA class I histocompatibility antigen, A alpha chain allele A*26:01; peptide-MHC binding, radioligand competition binding): 0.0067 µM
O=CCc1ccccc1 — IC50 (uncharacterized protein (Drosophila suzukii, UniProt A0AB39ZCT4); binding, bis-ANS competition fluorescence; pH 7.4, with: bis-ANS): > 50 µM
COc1cc(Nc2ncc(F)c(Nc3ccc4c(n3)NC(=O)C(C)(C)O4)n2)cc(OC)c1OC — IC50 (Cathepsin Z (Homo sapiens, UniProt Q9UBR2)): > 10 µM
CNC(C)Cc1ccc2nonc2c1 (centres unmarked) — IC50 (SLC22A2 (Homo sapiens, UniProt O15244)): 15 ± 7.4 µM
